Results pooled from the literature.
Parts stem from different laboratories: compare values within a part only. Changes are numbered by the printed parent chain.
Chain of UniProt P49841 (whole entry, looked up): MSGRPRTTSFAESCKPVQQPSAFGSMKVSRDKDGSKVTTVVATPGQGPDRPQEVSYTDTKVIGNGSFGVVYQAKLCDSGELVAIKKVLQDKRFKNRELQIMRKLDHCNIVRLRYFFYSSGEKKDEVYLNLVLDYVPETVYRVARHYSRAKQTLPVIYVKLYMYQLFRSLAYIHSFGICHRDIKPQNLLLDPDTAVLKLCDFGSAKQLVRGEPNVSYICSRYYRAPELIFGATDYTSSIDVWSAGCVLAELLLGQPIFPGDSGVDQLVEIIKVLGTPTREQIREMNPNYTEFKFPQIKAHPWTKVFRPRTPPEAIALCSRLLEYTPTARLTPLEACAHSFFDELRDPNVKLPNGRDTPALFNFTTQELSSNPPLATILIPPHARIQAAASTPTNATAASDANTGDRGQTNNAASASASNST

Study 1
Target: CCNB3, cyclin fold, Cln2 fusion (human)
Method: yeast growth competition, sequencing
Sample: yeast
Setting: strong parent motif
Reference: not given
Direction: higher = stronger binding
Parent: viral docking peptide; TSVRRALFTGGSD; partner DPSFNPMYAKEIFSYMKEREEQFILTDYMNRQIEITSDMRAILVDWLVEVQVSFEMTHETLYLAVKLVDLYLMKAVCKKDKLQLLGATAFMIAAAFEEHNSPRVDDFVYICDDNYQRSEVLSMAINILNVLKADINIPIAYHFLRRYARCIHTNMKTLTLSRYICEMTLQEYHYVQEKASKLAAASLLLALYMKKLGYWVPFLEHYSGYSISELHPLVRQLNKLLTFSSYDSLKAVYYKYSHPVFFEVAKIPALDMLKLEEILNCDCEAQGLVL
Under “normalised enrichment score”, `TSVRRALPTGGSD [F8P]` is recorded as 0.18.
Under “normalised enrichment score”, `TSVRRALFYGGSD [T9Y]` is recorded as 1.54.
`TSVRRHLFTGGSD [A6H]` — result for “normalised enrichment score”: 0.918.
`TSVSRALFTGGSD [R4S]` — result for “normalised enrichment score”: 0.443.
Under “normalised enrichment score”, `TQVRRALFTGGSD [S2Q]` is recorded as 1.2.
Under “normalised enrichment score”, `TSPRRALFTGGSD [V3P]` is recorded as 0.743.
For `TSVRLALFTGGSD [R5L]`, “normalised enrichment score” read 0.0189.
`TSVRRALFTGNSD [G11N]`: “normalised enrichment score” 1.79.

Study 2
Target: UDP-N-acetylglucosamine--peptide N-acetylglucosaminyltransferase 110 kDa subunit (OGT, Homo sapiens, UniProt O15294)
Chain of UniProt O15294 (whole entry, looked up): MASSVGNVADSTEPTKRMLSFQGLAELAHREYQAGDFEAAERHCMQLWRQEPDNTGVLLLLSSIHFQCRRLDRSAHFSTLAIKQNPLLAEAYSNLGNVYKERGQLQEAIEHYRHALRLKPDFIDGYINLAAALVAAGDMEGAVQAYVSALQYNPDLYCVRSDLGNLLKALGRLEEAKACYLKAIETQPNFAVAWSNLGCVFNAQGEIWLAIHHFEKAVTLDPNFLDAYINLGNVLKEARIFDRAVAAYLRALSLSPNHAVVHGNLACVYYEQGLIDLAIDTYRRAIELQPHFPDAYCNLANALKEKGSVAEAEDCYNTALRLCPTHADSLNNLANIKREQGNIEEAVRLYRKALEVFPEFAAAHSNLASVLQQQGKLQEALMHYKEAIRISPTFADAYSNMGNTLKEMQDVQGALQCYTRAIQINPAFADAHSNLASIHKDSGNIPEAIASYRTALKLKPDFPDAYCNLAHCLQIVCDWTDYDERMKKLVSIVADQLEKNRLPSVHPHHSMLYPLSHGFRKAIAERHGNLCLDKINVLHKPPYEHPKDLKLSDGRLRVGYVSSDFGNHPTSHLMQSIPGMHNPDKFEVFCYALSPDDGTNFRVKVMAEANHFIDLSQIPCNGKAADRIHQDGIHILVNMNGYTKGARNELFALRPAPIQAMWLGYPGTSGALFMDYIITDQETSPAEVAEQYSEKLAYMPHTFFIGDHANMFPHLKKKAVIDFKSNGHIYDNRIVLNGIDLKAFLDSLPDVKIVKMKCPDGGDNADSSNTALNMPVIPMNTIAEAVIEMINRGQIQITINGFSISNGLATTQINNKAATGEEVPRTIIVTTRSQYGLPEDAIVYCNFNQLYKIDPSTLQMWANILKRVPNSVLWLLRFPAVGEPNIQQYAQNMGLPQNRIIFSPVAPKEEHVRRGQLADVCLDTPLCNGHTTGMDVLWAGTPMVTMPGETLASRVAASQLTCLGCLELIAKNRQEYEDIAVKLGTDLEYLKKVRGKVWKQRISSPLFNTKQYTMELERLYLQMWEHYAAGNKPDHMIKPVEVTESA
Effect on: binding
Method: phage display NGS
Form: peptide
Concentration: concentration not given
Setting: panning round 2
Reference: input library
`RMDHTQRPLWHQHHN`: “enrichment fold change” 6.68.
For `NQYHHGNTGNFHTHP`, “enrichment fold change” read 7.62.
`IVGAIFPPKYLITYA`: “enrichment fold change” 25.5.
`HTSIAHHLHIGTIQT`: “enrichment fold change” 6.2.
`TIAQQSRMMNHHSKH` — result for “enrichment fold change”: 5.08.
For `HPSHRWHYNETHTD`, “enrichment fold change” read 7.18.
For `LPIPKFLPIYQLKLE`, “enrichment fold change” read 6.66.
`RDIMPDYHPIYQIRI`: “enrichment fold change” 23.3.

Study 3
Target: tungstate, free oxyanion
Method: microfluidic competitive inhibition
Sample: in vitro, cell-free expressed
Concentration: not given
Setting: derived from inhibition constants, unchanged parent 2230 nM
Direction: lower = stronger binding
Parent: PafA, mature enzyme, eGFP fusion (Elizabethkingia meningoseptica, UniProt Q9KJX5); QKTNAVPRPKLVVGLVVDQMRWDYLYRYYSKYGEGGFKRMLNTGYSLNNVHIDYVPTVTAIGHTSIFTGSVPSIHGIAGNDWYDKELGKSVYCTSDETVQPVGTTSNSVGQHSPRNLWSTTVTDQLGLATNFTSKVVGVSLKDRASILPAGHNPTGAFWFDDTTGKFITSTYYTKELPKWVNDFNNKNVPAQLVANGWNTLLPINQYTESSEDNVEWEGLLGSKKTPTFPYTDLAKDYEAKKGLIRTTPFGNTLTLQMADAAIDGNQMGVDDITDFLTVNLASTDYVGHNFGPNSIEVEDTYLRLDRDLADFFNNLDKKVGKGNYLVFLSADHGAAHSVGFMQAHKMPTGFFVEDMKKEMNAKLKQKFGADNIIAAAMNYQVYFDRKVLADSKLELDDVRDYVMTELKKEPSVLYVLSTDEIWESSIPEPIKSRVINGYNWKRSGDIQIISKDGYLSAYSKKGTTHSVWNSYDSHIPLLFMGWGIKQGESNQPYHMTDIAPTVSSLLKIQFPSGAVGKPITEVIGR
`H466V`: “oxyanion analog dissociation constant” 12900 nM.
For `A335V`, “oxyanion analog dissociation constant” read 2970 nM.
`G197V`: “oxyanion analog dissociation constant” 2530 nM.
For `L396G`, “oxyanion analog dissociation constant” read 2230 nM.
`I431G`: “oxyanion analog dissociation constant” 704 nM.
For `T123G`, “oxyanion analog dissociation constant” read 1960 nM.
`I66V`: “oxyanion analog dissociation constant” 1710 nM.
`S46G`: “oxyanion analog dissociation constant” 2010 nM.

Other studies, line by line
COC(=O)c1cc(N(C)C(=O)c2ccn3ncc(-c4ccc(C(=O)O)cc4)c3c2)ccc1Cl gave an IC50 of 19.2 µM (Glycogen synthase kinase-3 beta (GSK3B, Homo sapiens, UniProt P49841); enzyme activity, inhibitor).

Repeated from above (study 3):
For `T123G`, “oxyanion analog dissociation constant” read 1960 nM.
For `A335V`, “oxyanion analog dissociation constant” read 2970 nM.
`I66V`: “oxyanion analog dissociation constant” 1710 nM.
